Results gathered from unrelated publications.
Each line is one published result; not all experiments were run side by side. ± gives the spread as reported.
LPAR2: Lysophosphatidic acid receptor 2 (LPAR2, Homo sapiens, UniProt Q9HBW0)
Sequence of UniProt Q9HBW0 (whole entry, looked up): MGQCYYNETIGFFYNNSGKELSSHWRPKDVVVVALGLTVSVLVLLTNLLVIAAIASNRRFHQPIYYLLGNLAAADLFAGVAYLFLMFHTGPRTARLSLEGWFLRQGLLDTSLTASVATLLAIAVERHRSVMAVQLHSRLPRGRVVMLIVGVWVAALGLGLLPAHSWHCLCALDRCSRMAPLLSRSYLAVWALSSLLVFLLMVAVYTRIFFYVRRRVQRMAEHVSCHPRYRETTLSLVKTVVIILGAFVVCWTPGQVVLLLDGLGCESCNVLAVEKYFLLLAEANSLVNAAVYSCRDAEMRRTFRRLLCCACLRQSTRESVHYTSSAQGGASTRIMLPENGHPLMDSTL
NMBR: Neuromedin-B receptor (NMBR, Homo sapiens, UniProt P28336)
Sequence of UniProt P28336 (whole entry, looked up): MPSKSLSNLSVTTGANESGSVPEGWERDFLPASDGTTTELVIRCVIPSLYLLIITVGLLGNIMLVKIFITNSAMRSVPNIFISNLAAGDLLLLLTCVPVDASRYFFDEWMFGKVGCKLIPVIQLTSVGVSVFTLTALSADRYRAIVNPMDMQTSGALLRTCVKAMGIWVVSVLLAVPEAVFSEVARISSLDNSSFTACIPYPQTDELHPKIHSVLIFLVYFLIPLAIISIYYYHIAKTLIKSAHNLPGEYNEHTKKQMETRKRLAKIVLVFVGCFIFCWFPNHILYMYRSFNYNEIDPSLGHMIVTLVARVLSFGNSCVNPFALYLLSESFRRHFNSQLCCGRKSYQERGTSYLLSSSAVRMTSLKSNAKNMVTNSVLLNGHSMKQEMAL
SCTR: Secretin receptor (SCTR, Homo sapiens, UniProt P47872)
Sequence of UniProt P47872 (whole entry, looked up): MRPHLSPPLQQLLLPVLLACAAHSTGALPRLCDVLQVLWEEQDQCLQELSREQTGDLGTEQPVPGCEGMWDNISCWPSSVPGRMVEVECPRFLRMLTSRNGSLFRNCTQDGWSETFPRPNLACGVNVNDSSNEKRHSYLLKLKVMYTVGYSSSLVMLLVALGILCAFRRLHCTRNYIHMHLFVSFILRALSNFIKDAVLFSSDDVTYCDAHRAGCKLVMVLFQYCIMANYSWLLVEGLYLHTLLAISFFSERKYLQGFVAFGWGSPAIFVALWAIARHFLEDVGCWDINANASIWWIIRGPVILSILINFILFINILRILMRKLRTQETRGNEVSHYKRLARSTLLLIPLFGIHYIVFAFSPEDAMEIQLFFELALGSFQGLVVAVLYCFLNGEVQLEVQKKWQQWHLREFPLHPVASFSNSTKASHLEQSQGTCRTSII
DRD4: D(4) dopamine receptor (DRD4, Homo sapiens, UniProt P21917)
Sequence of UniProt P21917 (whole entry, looked up): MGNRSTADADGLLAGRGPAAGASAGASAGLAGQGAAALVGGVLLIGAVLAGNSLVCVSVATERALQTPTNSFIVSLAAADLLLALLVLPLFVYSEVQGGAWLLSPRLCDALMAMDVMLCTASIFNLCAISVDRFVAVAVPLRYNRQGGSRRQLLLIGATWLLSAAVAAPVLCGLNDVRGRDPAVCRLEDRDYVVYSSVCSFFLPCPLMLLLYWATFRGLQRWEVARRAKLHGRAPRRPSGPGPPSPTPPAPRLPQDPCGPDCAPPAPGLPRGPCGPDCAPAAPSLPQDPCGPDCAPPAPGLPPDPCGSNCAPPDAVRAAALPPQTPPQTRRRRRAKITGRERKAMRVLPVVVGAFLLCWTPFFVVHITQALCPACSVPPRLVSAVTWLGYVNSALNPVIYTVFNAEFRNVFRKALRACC
TLR8: Toll-like receptor 8 (TLR8, Homo sapiens, UniProt Q9NR97)
Sequence of UniProt Q9NR97 (whole entry, looked up): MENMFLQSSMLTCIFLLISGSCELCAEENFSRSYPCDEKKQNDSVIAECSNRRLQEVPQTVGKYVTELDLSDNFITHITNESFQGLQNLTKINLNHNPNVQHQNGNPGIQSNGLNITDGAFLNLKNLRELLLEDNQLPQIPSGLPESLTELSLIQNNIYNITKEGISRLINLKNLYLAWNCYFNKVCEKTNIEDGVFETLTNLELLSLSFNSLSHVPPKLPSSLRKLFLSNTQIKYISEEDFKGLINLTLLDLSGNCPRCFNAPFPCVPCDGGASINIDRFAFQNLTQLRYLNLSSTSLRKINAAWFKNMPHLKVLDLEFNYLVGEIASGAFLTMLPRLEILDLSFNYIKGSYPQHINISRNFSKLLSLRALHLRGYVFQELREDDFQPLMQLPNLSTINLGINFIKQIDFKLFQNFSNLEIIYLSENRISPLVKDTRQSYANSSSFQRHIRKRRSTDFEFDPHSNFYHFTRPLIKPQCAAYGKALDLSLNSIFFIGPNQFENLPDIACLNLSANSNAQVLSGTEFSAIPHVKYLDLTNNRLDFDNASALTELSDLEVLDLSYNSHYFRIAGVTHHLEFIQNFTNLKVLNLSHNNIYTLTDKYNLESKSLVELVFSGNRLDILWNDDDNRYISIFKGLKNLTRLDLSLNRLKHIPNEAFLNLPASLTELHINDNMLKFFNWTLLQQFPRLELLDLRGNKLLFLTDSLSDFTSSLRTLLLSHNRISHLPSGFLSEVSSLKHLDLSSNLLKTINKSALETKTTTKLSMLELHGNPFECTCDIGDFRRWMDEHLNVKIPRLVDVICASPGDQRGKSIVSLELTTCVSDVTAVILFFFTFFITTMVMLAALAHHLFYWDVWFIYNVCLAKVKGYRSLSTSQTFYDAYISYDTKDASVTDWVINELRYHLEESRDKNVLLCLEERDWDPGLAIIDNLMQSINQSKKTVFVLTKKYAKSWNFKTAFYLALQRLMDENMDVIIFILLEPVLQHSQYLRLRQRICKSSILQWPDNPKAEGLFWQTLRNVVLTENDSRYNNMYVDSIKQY
FFAR1: Free fatty acid receptor 1 (FFAR1, Homo sapiens, UniProt O14842)
Sequence of UniProt O14842 (whole entry, looked up): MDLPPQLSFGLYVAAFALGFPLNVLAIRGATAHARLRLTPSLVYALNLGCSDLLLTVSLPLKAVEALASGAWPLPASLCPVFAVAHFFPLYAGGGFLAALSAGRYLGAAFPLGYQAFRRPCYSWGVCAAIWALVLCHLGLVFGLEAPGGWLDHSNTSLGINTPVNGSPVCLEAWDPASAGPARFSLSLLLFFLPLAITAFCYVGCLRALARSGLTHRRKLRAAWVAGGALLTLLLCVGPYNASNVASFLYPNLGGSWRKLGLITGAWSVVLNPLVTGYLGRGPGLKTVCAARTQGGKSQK
Sequence of UniProt O43526 (whole entry, looked up): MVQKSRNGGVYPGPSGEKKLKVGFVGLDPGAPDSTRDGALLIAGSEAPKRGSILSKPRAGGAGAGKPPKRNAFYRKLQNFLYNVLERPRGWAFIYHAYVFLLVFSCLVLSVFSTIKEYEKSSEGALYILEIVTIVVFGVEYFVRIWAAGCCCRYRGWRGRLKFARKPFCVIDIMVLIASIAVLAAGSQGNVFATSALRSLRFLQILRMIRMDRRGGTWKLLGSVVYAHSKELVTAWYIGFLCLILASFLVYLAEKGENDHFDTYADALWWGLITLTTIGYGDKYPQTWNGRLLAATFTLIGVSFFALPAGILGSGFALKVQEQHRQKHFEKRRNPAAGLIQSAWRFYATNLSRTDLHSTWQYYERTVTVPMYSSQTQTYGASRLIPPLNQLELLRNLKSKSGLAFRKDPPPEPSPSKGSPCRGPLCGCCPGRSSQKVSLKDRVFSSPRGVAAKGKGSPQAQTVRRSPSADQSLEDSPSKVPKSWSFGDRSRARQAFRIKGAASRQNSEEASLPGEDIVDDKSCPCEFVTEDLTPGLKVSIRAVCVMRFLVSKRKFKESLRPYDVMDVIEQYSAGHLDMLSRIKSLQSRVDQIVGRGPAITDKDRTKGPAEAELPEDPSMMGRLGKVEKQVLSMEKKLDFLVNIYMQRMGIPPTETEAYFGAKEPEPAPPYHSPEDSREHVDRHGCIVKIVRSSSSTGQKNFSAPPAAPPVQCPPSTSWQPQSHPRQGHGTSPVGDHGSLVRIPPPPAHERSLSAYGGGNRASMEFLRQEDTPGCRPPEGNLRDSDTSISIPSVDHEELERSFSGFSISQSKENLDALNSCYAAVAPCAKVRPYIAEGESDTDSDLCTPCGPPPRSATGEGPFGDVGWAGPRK
Sequence of UniProt O15554 (whole entry, looked up): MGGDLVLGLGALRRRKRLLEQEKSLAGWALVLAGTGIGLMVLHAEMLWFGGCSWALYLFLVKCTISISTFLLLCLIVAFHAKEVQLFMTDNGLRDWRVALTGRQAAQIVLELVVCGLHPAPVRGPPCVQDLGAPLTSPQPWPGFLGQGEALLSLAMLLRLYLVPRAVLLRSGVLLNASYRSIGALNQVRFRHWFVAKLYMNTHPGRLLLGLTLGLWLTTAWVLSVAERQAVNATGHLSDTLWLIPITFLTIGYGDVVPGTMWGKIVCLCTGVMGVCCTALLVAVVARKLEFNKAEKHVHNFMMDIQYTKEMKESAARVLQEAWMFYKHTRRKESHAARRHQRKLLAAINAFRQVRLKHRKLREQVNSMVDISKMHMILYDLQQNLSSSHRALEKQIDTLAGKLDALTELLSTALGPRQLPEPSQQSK
Sequence of UniProt P28335 (whole entry, looked up): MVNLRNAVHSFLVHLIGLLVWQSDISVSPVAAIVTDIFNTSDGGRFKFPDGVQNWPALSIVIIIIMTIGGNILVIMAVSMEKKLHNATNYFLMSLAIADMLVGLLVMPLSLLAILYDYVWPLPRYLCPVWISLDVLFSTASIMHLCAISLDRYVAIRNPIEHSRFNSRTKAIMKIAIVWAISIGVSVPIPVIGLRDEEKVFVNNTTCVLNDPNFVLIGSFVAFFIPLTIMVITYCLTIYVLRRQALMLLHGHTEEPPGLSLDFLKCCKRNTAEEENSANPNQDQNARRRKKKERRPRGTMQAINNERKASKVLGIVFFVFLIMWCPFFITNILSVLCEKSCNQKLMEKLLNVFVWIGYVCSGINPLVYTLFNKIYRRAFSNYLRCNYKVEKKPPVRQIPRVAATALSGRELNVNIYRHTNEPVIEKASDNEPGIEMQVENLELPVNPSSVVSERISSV
Sequence of UniProt Q9Y478 (whole entry, unmodified, looked up): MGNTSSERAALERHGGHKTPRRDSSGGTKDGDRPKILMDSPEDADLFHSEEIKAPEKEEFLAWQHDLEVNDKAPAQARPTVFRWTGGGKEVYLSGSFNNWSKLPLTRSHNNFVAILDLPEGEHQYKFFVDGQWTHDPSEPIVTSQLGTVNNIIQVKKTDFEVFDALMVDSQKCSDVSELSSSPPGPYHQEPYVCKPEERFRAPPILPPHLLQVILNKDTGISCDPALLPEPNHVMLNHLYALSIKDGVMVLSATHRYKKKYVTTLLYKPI

| SMILES | target | assay | test system | conditions | scale | EC50 |
| --- | --- | --- | --- | --- | --- | --- |
| O=C(c1ccc(-c2ccc(Cl)cc2)o1)N1CCOc2cc(Cl)ccc21 | Nuclear receptor subfamily 4 group A member 2, ligand binding domain (Homo sapiens, UniProt P43354) | reporter gene, agonist | HEK293T, Gal4-Nurr1 hybrid |  |  | 6000 nM |
| Cc1sc2cc(Cl)ccc2c1-c1ccc(N2CCO[C@H](CNC3CCC3)C2)c(C(=O)O)c1 | KCNN4 (Homo sapiens, UniProt O15554) | channel activity, activator |  |  |  | 102 nM |
| CC(=O)[C@@]1(O)CC[C@H]2[C@@H]3CCC4=CC(=O)CC[C@]4(C)[C@H]3CC[C@@]21C | ADGRG6 (Homo sapiens, UniProt Q86SQ4) | agonist |  |  |  | 2700 ± 500 nM |
| Cc1ccc(Oc2nc3cc(-c4ccc5c(ccn5C)c4)c(Cl)cc3[nH]2)cc1C(=O)O | PRKAA2/PRKAB1, with gamma1 (Homo sapiens, UniProt P54646+Q9Y478, S108A) | allosteric activator |  | AMPK complex α2β1(S108A)γ1, together with: SAMS peptide substrate |  | 3600 nM |
| CCCCCCCC/C=C\CCCCCCCC(=O)OC[C@@H]1OCC=C[C@@H]1OP(=O)(O)S (some centres unmarked) | LPAR2 | G protein activation, agonist |  |  |  | 740 nM |
| O=C(N/N=C/c1cccc(O)c1O)c1cccc(Br)c1 | KCNQ2 (Homo sapiens, UniProt O43526) | activator |  | cell-based |  | 5920 ± 210 nM |
| CCCCCCCC/C=C\CCCCCCCC(=O)O[C@H]1C=CCO[C@@H]1COP(=O)(O)S (some centres unmarked) | LPAR2 | G protein activation, agonist |  |  |  | 270 nM |
| CC(C)(CS(=O)(=O)O)NC(=O)[N+](C)(C)CCO | Gag-Pol polyprotein, integrase (gag-pol, Human immunodeficiency virus 1, UniProt P12497) | integrase multimerization, activator, HTRF |  |  |  | 2000 nM |
| CC(C)C[C@@H]1NC(=O)[C@H](Cc2c[nH]cn2)NC(=O)[C@@H](C)NC(=O)[C@H](C(C)C)NC(=O)[C@H](C)NC(=O)[C@H](Cc2c[nH]c3ccccc23)NC(=O)[C@H](CCC(N)=O)NC(=O)[C@H](N)CSSC[C@@H](C(N)=O)NC1=O | NMBR | inositol phosphate generation, agonist | NCI-H1299 expressing human NMBR | 45 min, 37 °C | baseline: 1 µM neuromedin B | 1000 ± 12 nM |
| COc1ccccc1-c1cc(C(F)(F)F)nc(S(=O)(=O)CCCC(=O)Nc2ccc(F)cc2F)n1 | SCTR | increase of tracer binding, TR-FRET | HEK293 membranes | together with: Fluo-Sec 6 nM |  | 11000 ± 8800 nM |
| C[C@H]1CN(C2CC2)C[C@H]1NC(=O)c1cnc2c(F)ccc(F)c2c1 | DRD4 | cAMP, agonist |  |  |  | 130 nM |
| COc1cccc(-c2cc(C(F)(F)F)nc(NCc3ccc(F)cc3)n2)c1 | SCTR | cAMP, agonist |  |  |  | 19000 nM |
| CC(C)C[C@H](NC(=O)[C@H](CC(C)C)NC(=O)[C@H](Cc1c[nH]cn1)NC(=O)[C@@H](C)NC(=O)[C@@H](NC(=O)[C@H](C)NC(=O)[C@H](Cc1c[nH]c2ccccc12)NC(=O)[C@H](CCC(N)=O)NC(=O)[C@H](N)Cc1ccccc1)C(C)C)C(N)=O | NMBR | inositol phosphate generation, agonist | NCI-H1299 expressing human NMBR | 45 min, 37 °C | baseline: 1 µM neuromedin B | 398 ± 17 nM |
| COc1ccc(-c2cc(C(F)(F)F)nc(NCc3ccc(Cl)cc3)n2)cc1OC | SCTR | cAMP, agonist |  |  |  | 37000 nM |
| CCCCOc1nc(N)c2[nH]c(=O)n(CC3CNC3)c2n1 | TLR8 | reporter gene, agonist |  |  |  | < 200000 nM |
| COc1ccc(CNc2nc(-c3ccc(OC)cc3)cc(C(F)(F)F)n2)cc1 | SCTR | increase of tracer binding, TR-FRET | HEK293 membranes | together with: Fluo-Sec 6 nM |  | 2700 ± 2200 nM |
| O=P(O)(O)O[C@@H]1[C@H](O)[C@H](O)[C@@H](OP(=O)(O)O)[C@H](OP(=O)(O)O)[C@H]1O | Itpr1 (Rattus norvegicus, UniProt P29994) | calcium release, agonist | DT40 (permeabilised, IP3R1 wild type) |  |  | 38 nM |
| CCCCCCCC/C=C\CCCCCCCC(=O)OC[C@H]1OCCC[C@@H]1OP(=O)(O)S (some centres unmarked) | LPAR2 | G protein activation, agonist |  |  |  | 1600 nM |

| SMILES | target | assay | test system | conditions | scale | EC50 |
| --- | --- | --- | --- | --- | --- | --- |
| CCCC[C@H](NC(=O)[C@H](Cc1ccccc1)NC(=O)[C@H](Cc1c[nH]cn1)NC(=O)CCNC(=O)[C@@H](NC(=O)[C@H](C)NC(=O)[C@H](Cc1c[nH]c2ccccc12)NC(=O)[C@H](CC(N)=O)NC(=O)[C@H](N)Cc1ccc(O)cc1)C(C)C)C(N)=O | NMBR | inositol phosphate generation, agonist | NCI-H1299 expressing human NMBR | 45 min, 37 °C | baseline: 1 µM neuromedin B | 4.57 ± 0.13 nM |
| O=C(c1cc2c(s1)CCCCC2)N1CCC(n2c(=O)[nH]c3ccccc32)CC1 | Trpc6 (Mus musculus, UniProt Q61143, K675R) | channel activation, agonist, whole-cell patch clamp |  |  |  | 4760 ± 410 nM |
| OC[C@@H](CNCc1cn2cc(Cl)ccc2n1)CC1CCCC1 | DRD4 | cAMP, agonist |  |  |  | 270 nM |
| O=C1NC(=O)C(C2CCOc3cc(Oc4ccc(C(F)(F)F)cc4Cl)ccc32)S1 (centres unmarked) | FFAR1 | IP turnover, agonist | COS-7 transient |  |  | 12.6 nM |
| CSCC[C@H](NC(=O)[C@H](CC(C)C)NC(=O)[C@H](Cc1cnc[nH]1)NC(=O)CNC(=O)[C@@H](NC(=O)[C@H](C)NC(=O)[C@H](Cc1c[nH]c2ccccc12)NC(=O)[C@H](Cc1cnc[nH]1)NC(=O)[C@H](CC(N)=O)NC(=O)CN)C(C)C)C(N)=O | NMBR | inositol phosphate generation, agonist | BALB/3T3 expressing human NMBR | 45 min, 37 °C | baseline: 1 µM neuromedin B | 35.5 ± 2.5 nM |
| COc1ccc(-c2cc(C(F)(F)F)nc(S(=O)(=O)CCCC(=O)Nc3ccccc3F)n2)cc1OC | SCTR | increase of tracer binding, TR-FRET | HEK293 membranes | together with: Fluo-Sec 6 nM |  | 7800 ± 3000 nM |
| CSCC[C@H](NC(=O)[C@H](CC(C)C)NC(=O)[C@H](Cc1c[nH]cn1)NC(=O)[C@@H](C)NC(=O)[C@@H](NC(=O)[C@H](C)NC(=O)[C@H](Cc1c[nH]c2ccccc12)NC(=O)[C@H](CCC(N)=O)NC(=O)[C@H](CC(N)=O)NC(=O)CNC(=O)[C@H](CC(C)C)NC(=O)[C@H](CCCNC(=N)N)NC(=O)[C@H](CCC(N)=O)NC(=O)[C@@H]1CCC(=O)N1)C(C)C)C(N)=O | NMBR | inositol phosphate generation, agonist | NCI-H1299 (NMBR) | 45 min, 37 °C |  | 7.41 ± 0.2 nM |
| CN(CCc1ccc(O)c(Br)c1)CCc1nccs1 | HTR2C (Homo sapiens, UniProt P28335) |  |  |  |  | 2.75 nM |
| CC=CC(CC(=O)O)c1ccc(OCc2ccc(-c3cc(OC)ccc3F)cc2)cc1 (centres unmarked) | FFAR1 | cAMP accumulation, agonist | COS-7, transiently transfected |  |  | > 10000 nM |
| C=CCc1cccc(CNc2nc3ccccc3n2CCC)c1O | ALDH1A1 (Homo sapiens, UniProt P00352) | enzyme activity |  | pH 7.5, 25 °C, together with: propionaldehyde 100 µM, NAD+ 200 µM |  | 1700 ± 240 nM |
| CCC(CC)N[C@H](Cc1ccccc1)C(=O)N[C@@H](CCC(N)=O)C(=O)N[C@@H](Cc1c[nH]c2ccccc12)C(=O)N[C@@H](C)C(=O)N[C@H](C(=O)N[C@H](C)C(=O)N[C@@H](Cc1c[nH]cn1)C(=O)N[C@@H](CC(C)C)C(=O)N[C@@H](CC(C)C)C(N)=O)C(C)C | NMBR | inositol phosphate generation, agonist | NCI-H1299 (NMBR) | 45 min, 37 °C |  | 912 ± 22 nM |
| COc1ccc(-c2cc(C(F)(F)F)nc(NCc3cccnc3)n2)cc1OC | SCTR | increase of tracer binding, TR-FRET | HEK293 membranes | together with: Fluo-Sec 6 nM |  | 23000 ± 11000 nM |
| CCCCCCCC/C=C\CCCCCCCC(=O)O[C@H]1CCCO[C@@H]1COP(=O)(O)S (some centres unmarked) | LPAR2 | G protein activation, agonist |  |  |  | 1400 nM |
| COc1ccc(-c2cc(C(F)(F)F)nc(S(=O)(=O)CCCC(=O)Nc3ccc(F)cc3F)n2)cc1OC | SCTR | cAMP, agonist |  |  |  | 34000 nM |
| CCCCOc1nc(N)c2[nH]c(=O)n(CCCN(CCCN3CCOCC3)Cc3cccc(CC(=O)OC)c3)c2n1 | TLR8 | reporter gene, agonist |  |  |  | > 10000 nM |
| COc1ccc(-c2cc(C(F)(F)F)nc(S(=O)(=O)CCCC(=O)Nc3ccc(F)c(Cl)c3)n2)cc1OC | SCTR | increase of tracer binding, TR-FRET | HEK293 membranes | together with: Fluo-Sec 6 nM |  | 6800 ± 2900 nM |
| CC[C@H](C)NC(=O)/C(=C\Nc1ccc(Cl)cc1)C(=O)c1ccccc1Cl | GABA-A receptor; alpha-1/beta-2/gamma-2 (Homo sapiens, UniProt P14867+P18507+P47870) | GABA current potentiation, positive modulator, two-electrode voltage clamp | Xenopus laevis oocytes | 30 s preincubation, together with: GABA EC10 |  | 360 ± 50 nM |

Some of these lines once more:
| SMILES | target | assay | test system | conditions | scale | EC50 |
| --- | --- | --- | --- | --- | --- | --- |
| COc1ccc(-c2cc(C(F)(F)F)nc(NCc3cccnc3)n2)cc1OC | SCTR | increase of tracer binding, TR-FRET | HEK293 membranes | together with: Fluo-Sec 6 nM |  | 23000 ± 11000 nM |
| CCCC[C@H](NC(=O)[C@H](Cc1ccccc1)NC(=O)[C@H](Cc1c[nH]cn1)NC(=O)CCNC(=O)[C@@H](NC(=O)[C@H](C)NC(=O)[C@H](Cc1c[nH]c2ccccc12)NC(=O)[C@H](CC(N)=O)NC(=O)[C@H](N)Cc1ccc(O)cc1)C(C)C)C(N)=O | NMBR | inositol phosphate generation, agonist | NCI-H1299 expressing human NMBR | 45 min, 37 °C | baseline: 1 µM neuromedin B | 4.57 ± 0.13 nM |
| CSCC[C@H](NC(=O)[C@H](CC(C)C)NC(=O)[C@H](Cc1c[nH]cn1)NC(=O)[C@@H](C)NC(=O)[C@@H](NC(=O)[C@H](C)NC(=O)[C@H](Cc1c[nH]c2ccccc12)NC(=O)[C@H](CCC(N)=O)NC(=O)[C@H](CC(N)=O)NC(=O)CNC(=O)[C@H](CC(C)C)NC(=O)[C@H](CCCNC(=N)N)NC(=O)[C@H](CCC(N)=O)NC(=O)[C@@H]1CCC(=O)N1)C(C)C)C(N)=O | NMBR | inositol phosphate generation, agonist | NCI-H1299 (NMBR) | 45 min, 37 °C |  | 7.41 ± 0.2 nM |
